Experimental data from different studies.
Compare with care: the assays were run in different laboratories.

For `Cc1cc(C)c(CNC(=O)c2cc(Cl)c3c(c2C)O[C@@](C)([C@H]2CC[C@H](N(C)C)CC2)O3)c(=O)[nH]1`, “half-life total drug” read 11.1 h (human, plasma; oral, 200 mg, cycle 1 day 15).
Under “half-life geometric mean”, `COC(=O)N[C@@H](C)CNc1nccc(-c2cn(C(C)C)nc2-c2cc(Cl)cc(NS(C)(=O)=O)c2F)n1` is recorded as 3.77 h (humans, plasma; oral, day 1, single dose, with: binimetinib).
For `COc1cc(C(=O)NC2CCN(C)CC2)c(F)cc1Nc1ncc(C(F)(F)F)c(Oc2cccc3c2C(=O)N(C)C3)n1`, “half-life steady state” read 19 h (human, Taiwanese, plasma; oral, 200 mg once daily multiple dose, geometric mean).
`O=C(c1cc(Cc2n[nH]c(=O)c3ccccc23)ccc1F)N1CCN(C(=O)C2CC2)CC1` gave a half-life decrease of 28% (human; oral, with: carboplatin before).
The half-life ratio of `CCNCc1cc(Nc2ccnc3cc(Cl)ccc23)ccc1O` is reported as 0.84 (humans, both sexes, plasma; oral, outlier included; relative to: fixed over non-fixed combination).
With `CC(C)(Sc1ccncc1-c1ccc(C#N)c2ccccc12)C(=O)O` the half-life was 21.3 h (human; oral, 5 mg once daily, with: febuxostat 0 mg).
With `O=C(COc1ccc(Cl)cc1)NC12CC(c3nnc([C@H]4C[C@@H](OC(F)(F)F)C4)o3)(C1)C2` the half-life was 44.6 h (healthy human volunteers fasted, plasma; oral, 800 mg single dose, arithmetic mean).
`N#Cc1ccc2c(c1)[C@H]1CCCN(C(=O)c3ccc4[nH]cnc4c3)[C@H]1C2`: “half-life steady state” 97.5 h (human, plasma; oral, 80 mg once daily, steady state).
`CO[C@H]1C[C@@H]2CC[C@@H](C)[C@@](O)(O2)C(=O)C(=O)N2CCCC[C@H]2C(=O)O[C@H]([C@H](C)C[C@@H]2CC[C@@H](OC(=O)NCCOCCOCCOCCOCCOCCOCCOCCOCCC(=O)N3CCc4cc(Cn5nc(-c6ccc7oc(N)nc7c6)c6c(N)ncnc65)ccc4C3)[C@H](OC)C2)C[C@@H](O)[C@H](C)/C=C(\C)[C@@H](O)[C@@H](OC)C(=O)[C@H](C)C[C@H](C)/C=C/C=C/C=C/1C` has a half-life of 5.5 h (human, plasma; intravenous, 12 mg, cycle 1 day 15, arithmetic mean).

Repeated from above:
For `Cc1cc(C)c(CNC(=O)c2cc(Cl)c3c(c2C)O[C@@](C)([C@H]2CC[C@H](N(C)C)CC2)O3)c(=O)[nH]1`, “half-life total drug” read 11.1 h (human, plasma; oral, 200 mg, cycle 1 day 15).
